Experimental data from different studies.
Parts stem from different laboratories: compare values within a part only. Substitutions count along the parent as printed.

Set 1
Target: Centromere-binding protein 1, full length, His-tagged (CBF1, Saccharomyces cerevisiae, UniProt P17106, residues 1-351)
Sequence of UniProt P17106 (whole entry, looked up): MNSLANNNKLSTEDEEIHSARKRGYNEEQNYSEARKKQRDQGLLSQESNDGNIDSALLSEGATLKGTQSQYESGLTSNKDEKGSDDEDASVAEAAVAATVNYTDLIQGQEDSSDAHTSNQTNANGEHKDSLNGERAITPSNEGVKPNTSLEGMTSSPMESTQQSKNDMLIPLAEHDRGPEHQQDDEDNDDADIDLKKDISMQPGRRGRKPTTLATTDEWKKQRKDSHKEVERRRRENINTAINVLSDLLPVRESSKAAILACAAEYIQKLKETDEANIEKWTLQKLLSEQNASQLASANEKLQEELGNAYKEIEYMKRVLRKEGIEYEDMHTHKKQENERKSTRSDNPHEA
Technique: competition protein-binding microarray
Form: double-stranded DNA, one strand shown
Medium: in vitro
Tested at: 2 µM
Setting: whole 60-bp probe, lowest competitor level
With: Pho4 competitor, 0.05 µM
Reading: higher = stronger binding
Constant ends, left off below: … GTCTTGATTCGCTTGACGCTGCTG
Sequence	fluorescence intensity [a.u.]
GTCTTGTCTCATTTTCACGTGGGCTTCCCCACTTCA	671
TAAACACCATCACTACACGTTTTAAACAAAACAAAC	116
TCCTCCACAAACAATCTCGTGGTCGTTTATCCATAC	195
GATCTTGACCTTACCGTCGTGACGGGCAGCCTTGAT	80.3
CCTATTATTGTTTGTCACGATGTCTTGGCTCAAGCT	274
TGTGGGAATTGTACCCACGATCCCCGCATTACGAGT	67.4
CTTGGTTACAGGTATCATGTGTGAAACTGTTTGCGG	165
TTTTTCTCGAACGGCCACGTTTGCGTTGTTACATGA	79.5
CTATCCCTTTCTTTGCACGTGATGGTAAGAATCGTA	5990
CTAACGAAGGTTTGCAGGGTGGGTGACAAGCCAAGT	66.2
CATTTCTGGGAGCTGCATGTGGGTGACGCAGCAGCA	96.3
TAATCTGATGATCGGCACGTATAGGTCTGCGACCTT	65

Set 2
Target: Histone acetyltransferase KAT6A, winged helix 1, GST fusion (KAT6A, Homo sapiens, UniProt Q92794, residues 1-85)
Technique: protein binding microarray
Form: double-stranded DNA, one strand shown
Medium: in vitro
Tested at: not given
Setting: 8-mer, flanks averaged, mean of 2 arrays, mostly near background
Baseline: not given
Reading: higher = stronger binding
Residues (chain): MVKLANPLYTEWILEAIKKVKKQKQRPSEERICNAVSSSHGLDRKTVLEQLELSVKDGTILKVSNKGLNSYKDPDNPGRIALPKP
Sequence	E-score
AATGCATT	-0.25
CCCCAACC	-0.121
ATGACAGC	-0.192
CCTTCATC	-0.177
ACTCCCAT	-0.228
GAAGGTGA	-0.0731
AACTCTGA	-0.213
AGGATAGA	-0.192
GAACGGTC	0.128
CCTCTATA	-0.0797

Set 3
Target: CCNE2, cyclin fold, Cln2 fusion (human)
Technique: yeast growth competition, sequencing
Medium: yeast
Setting: strong parent motif
Baseline: not given
Reading: higher = stronger binding
Starting sequence: E2F1 docking peptide (human); PPVKRRLDLETDH; partner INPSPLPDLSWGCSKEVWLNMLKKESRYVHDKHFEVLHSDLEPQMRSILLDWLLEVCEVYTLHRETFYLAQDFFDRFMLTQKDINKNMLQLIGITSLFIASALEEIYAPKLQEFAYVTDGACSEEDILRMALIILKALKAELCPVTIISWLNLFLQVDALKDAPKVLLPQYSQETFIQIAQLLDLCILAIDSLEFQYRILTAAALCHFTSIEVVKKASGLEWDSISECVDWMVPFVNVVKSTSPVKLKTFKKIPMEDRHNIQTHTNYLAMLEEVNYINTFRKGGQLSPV
Change	normalised enrichment score
PPVKRRCDLETDH [L7C]	0.184
PPVKRRLDLEIDH [T11I]	2
PPVKRDLDLETDH [R6D]	-0.315
PPVKRRLDLETDS [H13S]	1.17
PPVKRKLDLETDH [R6K]	0.574
PPVKRRLYLETDH [D8Y]	1.88
MPVKRRLDLETDH [P1M]	2.27

Single results of other studies
Molecule	target	assay	test system	conditions	scale	measurement	result
PhoQ, residues 284 288 289 292 302 303 SNSSNI	PhoP, residues 12 14 15 18 19 NQFFI (Escherichia coli, UniProt P23836)	Sort-seq, item: YFP reporter	E. coli	PhoQ-PhoP variant library, with: 10 µM Mg2+	baseline: high Mg2+ state, higher = stronger signaling	fold induction	9.95

Excerpt of the above (set 3):
Change	normalised enrichment score
PPVKRRCDLETDH [L7C]	0.184
PPVKRRLDLEIDH [T11I]	2
PPVKRDLDLETDH [R6D]	-0.315
PPVKRRLDLETDS [H13S]	1.17
